Experimental data of several laboratories.
Lines come from different studies, so protocols differ. ± marks the error that the study gave.
Caspase-2 circularly permuted: Caspase-2, circularly permuted (Homo sapiens, UniProt P42575)
UniProt P42575, sequence (whole entry, unmodified, looked up): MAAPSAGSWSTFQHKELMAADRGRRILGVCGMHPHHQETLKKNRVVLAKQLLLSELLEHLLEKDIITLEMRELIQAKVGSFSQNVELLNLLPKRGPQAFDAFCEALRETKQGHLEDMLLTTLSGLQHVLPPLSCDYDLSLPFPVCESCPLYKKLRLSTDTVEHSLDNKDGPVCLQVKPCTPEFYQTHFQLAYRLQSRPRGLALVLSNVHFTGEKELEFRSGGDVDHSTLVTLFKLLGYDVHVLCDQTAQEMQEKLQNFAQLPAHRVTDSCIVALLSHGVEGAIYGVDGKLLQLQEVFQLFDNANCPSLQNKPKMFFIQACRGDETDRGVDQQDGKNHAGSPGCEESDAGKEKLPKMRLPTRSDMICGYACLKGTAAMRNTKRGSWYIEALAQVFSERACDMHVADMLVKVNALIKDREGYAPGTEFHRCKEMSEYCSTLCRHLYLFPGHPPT
Caspase-2: Caspase-2 (Homo sapiens, UniProt P42575)
UniProt P31389, sequence (whole entry, looked up): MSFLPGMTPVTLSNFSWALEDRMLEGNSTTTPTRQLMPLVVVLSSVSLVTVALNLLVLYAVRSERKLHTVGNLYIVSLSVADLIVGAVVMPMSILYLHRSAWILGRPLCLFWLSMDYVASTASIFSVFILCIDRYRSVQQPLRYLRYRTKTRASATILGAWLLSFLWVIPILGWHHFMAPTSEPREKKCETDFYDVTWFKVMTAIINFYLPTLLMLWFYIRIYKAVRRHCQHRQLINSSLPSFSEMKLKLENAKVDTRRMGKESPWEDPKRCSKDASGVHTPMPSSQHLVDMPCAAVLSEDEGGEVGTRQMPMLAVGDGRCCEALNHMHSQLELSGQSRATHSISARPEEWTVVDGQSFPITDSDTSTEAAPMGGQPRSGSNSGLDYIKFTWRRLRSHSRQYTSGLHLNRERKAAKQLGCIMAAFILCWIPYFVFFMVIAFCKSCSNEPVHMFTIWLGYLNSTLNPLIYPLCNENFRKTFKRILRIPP
UniProt Q4VCS5, sequence (whole entry, looked up): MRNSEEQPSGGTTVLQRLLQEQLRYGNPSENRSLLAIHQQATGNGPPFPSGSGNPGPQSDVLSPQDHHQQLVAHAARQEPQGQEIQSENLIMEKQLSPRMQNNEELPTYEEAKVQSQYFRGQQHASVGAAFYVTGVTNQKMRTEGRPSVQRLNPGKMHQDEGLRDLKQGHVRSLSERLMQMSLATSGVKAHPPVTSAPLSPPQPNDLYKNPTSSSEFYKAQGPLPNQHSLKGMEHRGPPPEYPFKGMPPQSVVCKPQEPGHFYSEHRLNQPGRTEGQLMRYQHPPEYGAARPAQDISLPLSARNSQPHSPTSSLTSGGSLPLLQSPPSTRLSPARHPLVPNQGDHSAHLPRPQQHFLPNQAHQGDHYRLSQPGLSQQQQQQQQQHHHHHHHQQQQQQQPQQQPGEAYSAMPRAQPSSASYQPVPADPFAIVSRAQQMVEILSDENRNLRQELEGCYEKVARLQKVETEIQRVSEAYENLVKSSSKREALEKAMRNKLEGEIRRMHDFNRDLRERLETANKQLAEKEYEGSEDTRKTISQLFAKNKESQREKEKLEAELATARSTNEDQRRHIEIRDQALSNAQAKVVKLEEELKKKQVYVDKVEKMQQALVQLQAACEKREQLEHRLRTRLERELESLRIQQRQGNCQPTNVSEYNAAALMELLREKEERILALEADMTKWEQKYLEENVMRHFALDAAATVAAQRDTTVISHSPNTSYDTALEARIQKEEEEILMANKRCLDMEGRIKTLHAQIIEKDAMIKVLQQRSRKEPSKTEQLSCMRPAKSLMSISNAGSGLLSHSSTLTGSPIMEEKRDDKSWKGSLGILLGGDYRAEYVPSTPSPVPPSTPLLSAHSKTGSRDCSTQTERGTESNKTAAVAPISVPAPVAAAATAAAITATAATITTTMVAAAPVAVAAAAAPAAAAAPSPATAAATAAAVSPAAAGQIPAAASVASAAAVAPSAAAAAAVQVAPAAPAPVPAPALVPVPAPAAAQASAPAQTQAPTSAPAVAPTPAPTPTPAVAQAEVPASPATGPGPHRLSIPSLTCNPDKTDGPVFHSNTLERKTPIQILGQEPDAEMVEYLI
UniProt P22736, sequence (whole entry, looked up): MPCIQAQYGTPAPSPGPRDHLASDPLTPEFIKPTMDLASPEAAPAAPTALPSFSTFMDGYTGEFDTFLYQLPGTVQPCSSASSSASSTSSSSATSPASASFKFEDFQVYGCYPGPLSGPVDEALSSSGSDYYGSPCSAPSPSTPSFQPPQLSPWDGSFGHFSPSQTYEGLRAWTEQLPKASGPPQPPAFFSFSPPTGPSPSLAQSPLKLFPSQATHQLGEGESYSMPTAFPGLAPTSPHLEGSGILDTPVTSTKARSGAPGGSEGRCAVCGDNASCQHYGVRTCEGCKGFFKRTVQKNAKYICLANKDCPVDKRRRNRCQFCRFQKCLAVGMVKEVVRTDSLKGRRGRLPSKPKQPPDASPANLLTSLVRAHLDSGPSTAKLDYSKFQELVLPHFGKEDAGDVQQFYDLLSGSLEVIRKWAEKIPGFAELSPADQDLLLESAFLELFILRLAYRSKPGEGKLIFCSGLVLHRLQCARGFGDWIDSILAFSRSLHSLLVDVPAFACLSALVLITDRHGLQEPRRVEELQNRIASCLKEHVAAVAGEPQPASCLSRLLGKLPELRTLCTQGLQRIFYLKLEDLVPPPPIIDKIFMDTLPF
UniProt Q8NB78, sequence (whole entry, looked up): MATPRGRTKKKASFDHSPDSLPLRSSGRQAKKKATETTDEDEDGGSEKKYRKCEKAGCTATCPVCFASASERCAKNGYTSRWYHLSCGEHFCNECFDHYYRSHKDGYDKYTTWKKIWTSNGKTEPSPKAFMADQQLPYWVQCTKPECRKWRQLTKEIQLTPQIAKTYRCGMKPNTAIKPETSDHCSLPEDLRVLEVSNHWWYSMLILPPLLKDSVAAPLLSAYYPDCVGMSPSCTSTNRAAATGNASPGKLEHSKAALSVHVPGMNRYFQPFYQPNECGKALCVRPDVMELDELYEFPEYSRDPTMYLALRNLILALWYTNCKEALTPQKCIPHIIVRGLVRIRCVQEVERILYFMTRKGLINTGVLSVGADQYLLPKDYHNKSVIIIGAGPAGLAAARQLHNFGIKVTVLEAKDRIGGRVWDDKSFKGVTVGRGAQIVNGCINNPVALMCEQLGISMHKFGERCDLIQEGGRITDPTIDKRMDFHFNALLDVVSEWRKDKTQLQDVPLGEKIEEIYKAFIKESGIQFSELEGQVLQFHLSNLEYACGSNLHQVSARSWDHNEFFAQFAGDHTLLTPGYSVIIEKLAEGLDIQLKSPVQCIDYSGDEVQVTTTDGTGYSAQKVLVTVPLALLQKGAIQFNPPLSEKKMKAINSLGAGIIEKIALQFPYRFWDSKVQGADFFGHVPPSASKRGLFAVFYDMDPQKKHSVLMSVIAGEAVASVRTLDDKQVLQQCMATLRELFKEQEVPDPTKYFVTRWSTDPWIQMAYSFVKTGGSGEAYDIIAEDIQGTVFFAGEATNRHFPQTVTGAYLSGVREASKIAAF
UniProt Q15109, sequence (whole entry, looked up): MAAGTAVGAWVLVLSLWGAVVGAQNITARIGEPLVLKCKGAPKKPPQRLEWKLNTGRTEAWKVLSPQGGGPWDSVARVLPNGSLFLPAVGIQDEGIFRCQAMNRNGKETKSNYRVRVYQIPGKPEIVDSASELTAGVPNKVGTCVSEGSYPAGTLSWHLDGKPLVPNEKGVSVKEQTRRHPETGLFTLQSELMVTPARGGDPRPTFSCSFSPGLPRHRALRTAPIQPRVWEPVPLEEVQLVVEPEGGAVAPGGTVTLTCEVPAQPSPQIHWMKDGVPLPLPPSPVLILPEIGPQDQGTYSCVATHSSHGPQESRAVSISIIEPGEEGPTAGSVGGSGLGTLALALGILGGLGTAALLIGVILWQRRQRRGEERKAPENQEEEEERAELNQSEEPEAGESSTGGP
UniProt P30958, sequence (whole entry, looked up): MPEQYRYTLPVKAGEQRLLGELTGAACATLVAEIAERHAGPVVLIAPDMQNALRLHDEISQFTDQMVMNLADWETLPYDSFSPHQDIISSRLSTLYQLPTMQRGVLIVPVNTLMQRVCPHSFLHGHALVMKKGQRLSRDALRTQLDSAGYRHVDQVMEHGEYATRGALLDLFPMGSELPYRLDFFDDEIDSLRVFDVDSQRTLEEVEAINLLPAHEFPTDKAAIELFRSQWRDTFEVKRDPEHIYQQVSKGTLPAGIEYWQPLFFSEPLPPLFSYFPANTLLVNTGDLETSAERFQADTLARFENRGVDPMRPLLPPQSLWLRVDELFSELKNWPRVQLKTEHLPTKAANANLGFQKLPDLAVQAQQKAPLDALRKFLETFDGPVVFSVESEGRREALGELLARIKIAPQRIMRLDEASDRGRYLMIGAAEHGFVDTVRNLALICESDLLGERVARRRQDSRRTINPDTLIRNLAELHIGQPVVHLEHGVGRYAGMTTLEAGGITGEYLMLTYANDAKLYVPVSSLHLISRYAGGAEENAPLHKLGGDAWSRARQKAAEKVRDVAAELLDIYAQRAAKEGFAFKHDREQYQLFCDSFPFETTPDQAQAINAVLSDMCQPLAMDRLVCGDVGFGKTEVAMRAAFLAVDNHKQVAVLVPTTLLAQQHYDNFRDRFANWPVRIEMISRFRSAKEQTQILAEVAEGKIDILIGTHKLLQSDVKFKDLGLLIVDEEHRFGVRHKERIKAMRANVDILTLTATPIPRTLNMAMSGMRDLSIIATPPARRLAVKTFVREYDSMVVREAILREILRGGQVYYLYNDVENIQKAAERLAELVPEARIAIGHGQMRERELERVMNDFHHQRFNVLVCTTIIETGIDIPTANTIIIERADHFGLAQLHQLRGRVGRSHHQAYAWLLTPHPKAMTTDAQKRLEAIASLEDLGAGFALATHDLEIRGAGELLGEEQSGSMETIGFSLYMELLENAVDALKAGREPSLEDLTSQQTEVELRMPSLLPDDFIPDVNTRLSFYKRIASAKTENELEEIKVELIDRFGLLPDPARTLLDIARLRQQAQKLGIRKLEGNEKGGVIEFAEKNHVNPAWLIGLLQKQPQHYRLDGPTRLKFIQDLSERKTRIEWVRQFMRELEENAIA

COc1ccc(CCCN[C@@H]2CCC[C@H]2CN[C@@H]2CCC[C@H]2CNCCCCN[C@@H]2CCC[C@H]2CN)cc1
Ki (Lysine-specific histone demethylase 2 (KDM1B, Homo sapiens, UniProt Q8NB78); enzyme activity, inhibitor): 24 µM

CCCNC(=N)NCCCc1c[nH]cn1
Kb (Histamine H1 receptor (HRH1, Cavia porcellus, UniProt P31389); tissue contraction, antagonist): 14.8 µM

O=C(COc1ccc2ccccc2c1)N[C@@H](Cc1cn(CCNC(=O)c2ccc(S[C@@H]3O[C@H](CO)[C@H](O)[C@H](O)[C@H]3O)cc2)nn1)C(=O)NCCO
Kd (PA-I galactophilic lectin (lecA, Pseudomonas aeruginosa, UniProt Q05097); binding, SPR): 6.4 µM

CC1=C(O)C(=O)C=C2C1=CC=C1[C@@]2(C)CC[C@@]2(C)[C@@H]3C[C@](C)(C(=O)NCCOCCOCCOCCOCC(=O)N[C@H](C(=O)N4C[C@H](O)C[C@H]4C(=O)N[C@@H](C)c4ccc(-c5scnc5C)cc4)C(C)(C)C)CC[C@]3(C)CC[C@]12C
DC50 (Nuclear receptor subfamily 4 group A member 1 (NR4A1, Homo sapiens, UniProt P22736); degrader, immunoblotting; CHL-1; 16 h): 0.229 µM

CC(=O)N[C@@H](CC(=O)O)C(=O)N[C@@H](CCCNC(=N)N)C(=O)N[C@@H](C)C(=O)N[C@H](C=O)CC(=O)O
Ki (Caspase-2 circularly permuted; enzyme activity, inhibitor; pH 6.5, 37 °C, with: Z-VDVAD-AFC): 1.02 µM

O=C(c1cc2c(s1)CCCCC2)N1CCC(n2c(=O)[nH]c3ccccc32)CC1
EC50 (Short transient receptor potential channel 6 (TRPC6, Homo sapiens, UniProt Q9Y210, Y705W); channel activation, agonist, whole-cell patch clamp): 3.92 ± 0.37 µM

CC(=O)N[C@@H](Cc1ccccc1)C(=O)N[C@@H](CC(=O)O)C(=O)N[C@H](C(=O)N1CCC[C@H]1C(=O)N[C@H](C=O)CC(=O)O)C(C)C
Ki (Caspase-2 circularly permuted; enzyme activity, inhibitor; pH 6.5, 37 °C, with: Z-VDVAD-AFC): 0.00933 µM

C[C@H](NC(=O)[C@H](CCCCNCC(=O)O)NC(=O)[C@H](Cc1ccccc1)NC(=O)[C@H](CCC(=O)O)NC(=O)[C@@H](N)CC(=O)O)C(=O)N[C@@H](CC(=O)O)C(=O)N[C@@H](CCC(=O)O)C(=O)O
Kd (Advanced glycosylation end product-specific receptor (AGER, Homo sapiens, UniProt Q15109); binding, fluorescence; pH 6.5): 97 µM

CC(=O)N[C@H](C(=O)N[C@@H](CCCCN)C(=O)N[C@H](C=O)CC(=O)O)C(C)C
Ki (Caspase-2; enzyme activity, inhibitor, fluorescence; pH 6.5): > 100 µM

N=C(N)c1cc(-c2ccccc2)c(-c2cncn2CCN)s1
Kd (YWHAH/AMOT (Homo sapiens, UniProt Q04917+Q4VCS5); binding, microscale thermophoresis; pH 7.4, 25 °C, with: Cy5 peptide 50 nM): 161 µM

CC(=O)N[C@H](C(=O)N[C@@H](CCN)C(=O)N[C@H](C=O)CC(=O)O)C(C)C
Ki (Caspase-2; enzyme activity, inhibitor, fluorescence; pH 6.5): 52.5 µM

CN(C)S(=O)(=O)c1ccc(S(=O)(=O)N2CCC(n3c(=O)[nH]c4ccccc43)CC2)cc1
Kd (mfd (Escherichia coli, UniProt P30958); binding, ITC): 83 µM

Excerpt of the above:
CC(=O)N[C@H](C(=O)N[C@@H](CCN)C(=O)N[C@H](C=O)CC(=O)O)C(C)C
Ki (Caspase-2; enzyme activity, inhibitor, fluorescence; pH 6.5): 52.5 µM
